Measured values of several laboratories.
A part holds a random share of what one study measured. Several values in a cell are separate wells, animals, samples, runs or records.
Sequence of UniProt P29376 (whole entry, looked up): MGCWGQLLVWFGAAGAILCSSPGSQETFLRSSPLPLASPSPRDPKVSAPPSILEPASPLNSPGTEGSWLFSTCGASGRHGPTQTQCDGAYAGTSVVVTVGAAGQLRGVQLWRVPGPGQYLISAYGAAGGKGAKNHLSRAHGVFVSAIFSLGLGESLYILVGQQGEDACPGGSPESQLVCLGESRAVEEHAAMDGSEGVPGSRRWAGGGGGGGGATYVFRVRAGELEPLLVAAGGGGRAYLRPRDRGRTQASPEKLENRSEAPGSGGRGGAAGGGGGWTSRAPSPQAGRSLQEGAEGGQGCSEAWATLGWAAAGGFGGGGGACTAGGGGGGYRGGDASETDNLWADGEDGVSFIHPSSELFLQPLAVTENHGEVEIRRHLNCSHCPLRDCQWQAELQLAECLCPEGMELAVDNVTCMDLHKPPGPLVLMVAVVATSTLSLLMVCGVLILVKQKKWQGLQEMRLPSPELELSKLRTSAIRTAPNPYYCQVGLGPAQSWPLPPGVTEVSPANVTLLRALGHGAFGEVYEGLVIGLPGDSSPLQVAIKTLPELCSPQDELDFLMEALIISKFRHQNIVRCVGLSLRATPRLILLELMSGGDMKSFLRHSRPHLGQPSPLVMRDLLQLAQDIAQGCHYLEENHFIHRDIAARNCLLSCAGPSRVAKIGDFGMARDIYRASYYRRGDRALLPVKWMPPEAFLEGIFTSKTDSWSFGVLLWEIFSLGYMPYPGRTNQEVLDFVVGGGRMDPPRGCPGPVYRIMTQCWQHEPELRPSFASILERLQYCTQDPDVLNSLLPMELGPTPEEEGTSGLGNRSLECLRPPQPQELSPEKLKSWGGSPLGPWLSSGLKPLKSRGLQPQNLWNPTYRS
Sequence of UniProt P61075 (whole entry, looked up): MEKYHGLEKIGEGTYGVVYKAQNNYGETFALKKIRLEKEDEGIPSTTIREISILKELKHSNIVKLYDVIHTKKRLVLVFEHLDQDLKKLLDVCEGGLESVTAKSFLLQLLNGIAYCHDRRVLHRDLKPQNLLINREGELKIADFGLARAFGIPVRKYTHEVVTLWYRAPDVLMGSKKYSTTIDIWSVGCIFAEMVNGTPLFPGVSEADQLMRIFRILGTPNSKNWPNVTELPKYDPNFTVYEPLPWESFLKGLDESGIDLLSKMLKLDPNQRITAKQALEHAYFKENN

Sample 1
Target: HLA class I histocompatibility antigen, A alpha chain, allele A*80:01 (Homo sapiens, UniProt P04439)
Read-out: peptide-MHC binding
Form: peptide
Concentration: concentration not given
Sequence	binding
SMLCWLGMT	inactive
QLEVRSTEV	inactive
LVTGAGSGF	inactive
HPLARTAKV	inactive
LQPSDTLLF	inactive
RAFWGQVQK	inactive
MPWLDNIVE	inactive
YLDNVGVHI	inactive

Sample 2
Target: UBE2D3 UBC core domain (UniProt P61077)
Method: yeast two-hybrid
Sample: yeast
Notes: mostly zero background
Relative to: not given
Reading: higher = stronger interaction
B1: TRAF5 RING domain (UniProt O00463); chain FVERLEERYKCAFCHSVLHNPHQTGCGHRFCQHCILSLRELNTVPICPVDKEVIKSQEVFK
B2: MKRN1 RING domain (UniProt Q9UHC7); chain FAVQRSKDMVCGICMEVVYEKANPSERRFGILSNCNHTYCLKCIRKWRSAKQFESKIIKSCPECRITSNFVIPSE
B3: RNF208 RING domain (UniProt Q9H0X6); chain SSAAAGEPLECPTCGHSYNVTQRRPRVLSCLHSVCEQCLQILYESCPKYKFISCPTCRRETVLFTDYG
B4: TRIM24 RING domain (UniProt O15164); chain EAARLNLLDTCAVCHQNIQSRAPKLLPCLHSFCQRCLPAPQRYLMLPAPMLGSAETPPPVPAPGSPVSGSSPFATQVGVIRCPVCSQECAERHII
B5: TRIM5 RING domain (UniProt Q9C035); chain LREVKLSPEGQKVDHCARHGEKLLLFCQEDGKVICWLCERSQEHRGHHTFLTEEVAREYQVKL
B6: VPS41 RING domain (UniProt P49754); chain KGVLVDEENICESCLSPILPSDAAKPFSVVVFHCRHMFHKECLPMPSMNSAAQFCNICSAKNRGPGSAI
Construct (chain): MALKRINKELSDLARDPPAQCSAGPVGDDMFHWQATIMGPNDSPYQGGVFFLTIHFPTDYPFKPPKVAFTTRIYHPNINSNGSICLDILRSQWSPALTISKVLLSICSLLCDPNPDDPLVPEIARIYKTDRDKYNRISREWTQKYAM
Sequence	lacZ reporter activity
B1 (TRAF5 RING domain)	0
B2 (MKRN1 RING domain)	0
B3 (RNF208 RING domain)	0
B4 (TRIM24 RING domain)	0
PAELEVQASECVVCLEREAQMIFLNCGHVCCCQQCCQPLRTCPLCRQDIAQRLRIY (LRSAM1 RING domain (UniProt Q6UWE0))	0
MPIRALCTICSDFFDHSRDVAAIHCGHTFHLQCLIQWFETAPSRTCPQCRIQVGKRTIIN (TRAIP RING domain (UniProt Q9BWF2))	0
B5 (TRIM5 RING domain)	0
B6 (VPS41 RING domain)	0

Mixed results
SMILES	target or system	test	system	conditions	endpoint	value
Cc1cccc(C)c1-n1nnnc1C1(N)CCC(C)CC1 (stereo not shown)			mouse, microsomes or S9	2 µM, 0.5 h	remaining compound	0.44%
CC(=O)N[C@@H](Cc1c[nH]c2ccccc12)C(=O)N[C@@H](CCC(=O)C=[N+]=[N-])C(=O)OC(C)C			C57BL/6 CES1-/- mouse	intravenous, 1 mg/kg	mean corpuscular volume	45.2 fL and 45.5 fL and 47 fL
CCCCc1c(-c2ccc(O)cc2)[nH]c2nccnc12	Leukocyte tyrosine kinase receptor (LTK, Homo sapiens, UniProt P29376)	enzyme activity, inhibitor, radiometric		0.5 µM	remaining activity	84.1%
[N-]=[N+]=CC(=O)CC[C@H](N)C(=O)O			C57BL/6 CES1-/- mouse	intravenous, 1 mg/kg	mean corpuscular volume	41.8 fL and 43.7 fL and 44.4 fL
Cc1ncsc1-c1ccc(CNC(=O)[C@@H]2C[C@@H](O)CN2C(=O)[C@@H](NC(=O)CCCCCNC(=O)Cc2ccccc2)C(C)(C)C)cc1		PRP-column chromatography			average log k' (20-100)	1.04
CO[C@@H](C)c1c(Nc2ccc([C@H](N(C)C(=O)C3CCS(=O)(=O)CC3)C(F)(F)F)cc2)cnc2cc(Cl)nn12	Cyclin-dependent kinase 2 homolog (CRK2, Plasmodium falciparum, UniProt P61075)	cell-free assay, competition with immobilised ligand		1 µM	remaining binding	100%

Some of these lines once more (sample 2):
Sequence	lacZ reporter activity
B2 (MKRN1 RING domain)	0
